Measured values from different studies.
Numbered parts are unrelated; each lists some results of a single study.

Study 1 — technique: RNA Bind-n-Seq; molecule type: RNA; medium: in vitro; concentration: not given; reference: input RNA pool; direction: higher = stronger binding
Target: RING finger protein unkempt homolog, zinc fingers 1-6, GST-SBP tag (UNK, Homo sapiens, UniProt Q9C0B0, residues 30-357)
Chain of UniProt Q9C0B0 (30-357, looked up): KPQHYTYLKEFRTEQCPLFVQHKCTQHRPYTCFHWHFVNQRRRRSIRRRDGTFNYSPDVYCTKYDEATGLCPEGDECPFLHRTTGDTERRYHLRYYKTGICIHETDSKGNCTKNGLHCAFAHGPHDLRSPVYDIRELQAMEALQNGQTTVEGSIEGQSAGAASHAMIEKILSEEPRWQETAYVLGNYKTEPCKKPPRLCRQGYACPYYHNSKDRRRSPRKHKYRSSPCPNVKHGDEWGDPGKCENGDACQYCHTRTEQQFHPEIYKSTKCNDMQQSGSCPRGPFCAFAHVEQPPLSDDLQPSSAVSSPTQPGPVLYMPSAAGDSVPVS
Setting: RNA with constant flanks, human-mouse chimeric sites, ends assumed
Constant ends, left off below: GGGAGUUCUACAGUCCGACGAUC … CAACAGAGGAUUGAGCAUCA
Sequence	bound/input enrichment [ratio]
GGCCUGGGACCGUCCUGGCUAGUGCAAAAUAGCGGCAGUGGAGGCUCGAGAGGAAAGUUUGUUAGUGGAGGCAGUGGUAGAGGCCGUAUGUACGCUCCCUUUACUCGAUAGAUGUGUUCU	0.558
AAAGAGUGGAUAGAGUGUGCACACGGGAUCGGUGGGACCCGGGCGAAAAAGGAGUGCAAGAUAGAGUAUGAUGAUUUCGAAGAGUGCUUGCUUCGGUACAAAACGAUGAGGCGAAUGCAU	0.664
GAUCCACAGUGGUCUGAGGAGCAACUCAUUGCUGCAAAAUUCUGUUUUGCUGGCCUUGUUAUAGGGCAGACUGAAGUGGACAUCAUGAGUCAUGCCACACAGGCUAUUUUUGAAAUUCUG	0.169
AAAGAGAAAGCUAAAACACUAAUAGAGAAGAGGAUUGGCAAAGAGAAUUUCAUAGAGGAAACUAGGAUUAUUAGCAAACAUGAGUUAUAUUCCAGAGCGUCUCAGAAACCCCAGCCAAAC	4.15
UCUUUAAAAAAAAAAUUACCUUUUCUGACAGUGCUUUCCCUCCCAUAGAUCCACGUUCAAGCUCAAAGGCCAAAACUUUUGCACGGAGCUCAAACAUCUGAUGAAGAUUUUUGAGACAGA	1.59
UUUGUAUUUAUGCUAAGCACACGUGCUGGUGGUCUGGGCAUCAAUCUUGCAACUGCUGAUGUAGUCAUUUUAUAUGAUUCUGAUUGGAAUCCGCAAGUAGAUCUUCAGGCUAUGGACCGU	0.252

Study 2 — technique: RNA Bind-n-Seq; molecule type: RNA; medium: in vitro; concentration: 200 nM; setting: whole 134-nt RNA, ends assumed; added: 150 mM LiCl; reference: input library; direction: higher = stronger binding; library: 7-deaza-guanosine replaces G
Target: Ras GTPase-activating protein-binding protein 1, full length (G3BP1, Homo sapiens, UniProt Q13283)
Chain of UniProt Q13283 (whole entry, looked up): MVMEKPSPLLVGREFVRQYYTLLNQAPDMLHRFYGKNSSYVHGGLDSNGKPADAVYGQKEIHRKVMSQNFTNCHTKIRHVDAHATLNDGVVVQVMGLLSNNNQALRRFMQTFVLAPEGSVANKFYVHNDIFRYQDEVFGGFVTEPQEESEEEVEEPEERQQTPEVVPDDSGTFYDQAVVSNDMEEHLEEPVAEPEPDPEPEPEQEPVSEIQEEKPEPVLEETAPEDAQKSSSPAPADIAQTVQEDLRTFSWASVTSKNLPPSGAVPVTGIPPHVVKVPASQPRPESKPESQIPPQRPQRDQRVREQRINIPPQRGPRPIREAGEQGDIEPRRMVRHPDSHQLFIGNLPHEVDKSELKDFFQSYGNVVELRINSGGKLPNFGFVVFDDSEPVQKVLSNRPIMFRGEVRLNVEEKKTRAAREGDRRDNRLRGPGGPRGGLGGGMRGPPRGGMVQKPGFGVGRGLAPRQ
Constant ends, left off below: GGGAGUUCUACAGUCCGACGAUC … UGGAAUUCUCGGGUGUCAAGG
Sequence	log2 enrichment
CAAGUCCUGUGCUACACAUCGUAUGUACCGAAUCGGAGGUUUUUGGUUUUUUUGGAAAGUAUUAUGUUACGCCGUUCGGAUCUGCACUUC	-0.703
AAGUCCUGUGCUACACAUCGUAUGUACCGAAUCGGGGUGGGGAAAGGGGUUUGGGGAAAGUAUUAUGUUACGCCGUUCGGAUCUGCACUU	-1.15
CACAGACAACACGCACCCACACAGACACAGAAGGAAGGGGUUGGGAUGGGGACAGGGUGCACAGCAGGGCGGGGUAGGACCCCAGCCCCU	0.254
CUGUGCUACACAUCGUAUGUACCGAAUCGGGGUUUUUUUGGGGUUUUUUUGGGUUUUUUUGGAAAGUAUUAUGUUACGCCGUUCGGAUCU	1.64
CAAGUCCUGUGCUACACAUCGUAUGUACCGAAUCGGAAAAAAAGGAGGUUUUUGGAAAGUAUUAUGUUACGCCGUUCGGAUCUGCACUUC	-0.926
AAGUCCUGUGCUACACAUCGUAUGUACCGAAUCGGGGCCCCGGGCCCCGGGCCCCGGAAAGUAUUAUGUUACGCCGUUCGGAUCUGCACU	-0.36
UUGUGUUCGUGAAUUGUAACUCCAGAAGCAAUGCCUGUACAAGCUCCACAAUGGACGGAUUUCCUCUCCUGCCCAAUUUGCACUCAGACU	1.66
CAAGUCCUGUGCUACACAUCGUAUGUACCGAAUCGGAAAGGGGAAAGGGAAAGGGGAAAGUAUUAUGUUACGCCGUUCGGAUCUGCACUU	-0.269

Study 3 — technique: protein binding microarray; molecule type: double-stranded DNA, one strand shown; medium: in vitro; concentration: not given; reference: not given; direction: higher = stronger binding
Target: Histone acetyltransferase KAT6A, winged helix 1, GST fusion (KAT6A, Homo sapiens, UniProt Q92794, residues 1-85)
Setting: 8-mer, flanks averaged, mean of 2 arrays, mostly near background
Target sequence (chain): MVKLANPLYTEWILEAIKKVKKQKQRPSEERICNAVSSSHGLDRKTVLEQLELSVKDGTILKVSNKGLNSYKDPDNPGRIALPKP
Sequence	E-score
CGGCGACA	0.318
TACGGGGA	0.251
AAGTACAG	-0.147
ATACGACC	0.0609
GACGGCGC	0.445
TCAGGGGA	-0.123
GCGTGAAC	0.254
ACTCGCTC	0.0125

Mixed results
Molecule	target	test	test system	conditions	scale	endpoint	result
PhoQ, residues 284 288 289 292 302 303 SIHMAM	PhoP, residues 12 14 15 18 19 ICWRQ (Escherichia coli, UniProt P23836)	Sort-seq, item: YFP reporter	E. coli	PhoQ-PhoP variant library, added: 10 µM Mg2+	reference: high Mg2+ state, higher = stronger signaling	fold induction	2.44

Repeated from above (study 2):
Sequence	log2 enrichment
CUGUGCUACACAUCGUAUGUACCGAAUCGGGGUUUUUUUGGGGUUUUUUUGGGUUUUUUUGGAAAGUAUUAUGUUACGCCGUUCGGAUCU	1.64
CAAGUCCUGUGCUACACAUCGUAUGUACCGAAUCGGAAAAAAAGGAGGUUUUUGGAAAGUAUUAUGUUACGCCGUUCGGAUCUGCACUUC	-0.926
AAGUCCUGUGCUACACAUCGUAUGUACCGAAUCGGGGCCCCGGGCCCCGGGCCCCGGAAAGUAUUAUGUUACGCCGUUCGGAUCUGCACU	-0.36
